# Results of several laboratories.
# A part holds a random share of what one study measured.

# Set 1
# Target: Histone acetyltransferase KAT6A, winged helix 2, GST fusion (KAT6A, Homo sapiens, UniProt Q92794, residues 85-181)
# Technique: protein binding microarray
# Molecule type: double-stranded DNA, one strand shown
# Sample: in vitro
# Tested at: not given
# Notes: 8-mer, flanks averaged, mean of 2 arrays, mostly near background
# Reference: not given
# Direction: higher = stronger binding
# Construct (chain): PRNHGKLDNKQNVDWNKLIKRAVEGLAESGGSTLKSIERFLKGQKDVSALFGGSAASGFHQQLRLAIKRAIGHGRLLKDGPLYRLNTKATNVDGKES
Strand,E-score
CTGTAAGC,0.00925
CTCTCTGA,0.0968
ACTAGTAG,-0.109
AATACTGA,-0.133
CACCGATC,-0.0788
GCAAAGAA,0.111
AGCAAATC,0.0155

# Set 2
# Target: Prothrombin, mature alpha-thrombin (F2, Homo sapiens, UniProt P00734)
# Technique: aptamer microarray, sandwich
# Molecule type: DNA with 2'F-ANA
# Sample: in vitro
# Tested at: 200 nM
# Notes: whole 15-mer aptamer, many near background
# Added: Cy3 exosite-II aptamer, 400 nM
# Direction: higher = stronger binding
# Strand: GGTTGGTGTGGTTGG
Modification,mean fluorescence intensity [a.u.]
2'F-ANA at 1 3 4 7 8 10 11 14,86.3
2'F-ANA at 3 4 5 9 11 14 15,49.6
2'F-ANA at 1 2 3 4 5 7 9 10 11 14 15,49.3
2'F-ANA at 1 4 5 7 9 11 14,50.1
2'F-ANA at 1 2 5 6 10 11 12 13 14,48.6
2'F-ANA at 1 2 8 15,252
2'F-ANA at 1 2 4 5 6 8 11 14 15,47.1
2'F-ANA at 1 2 5 6 7 8 9 10 13 14,55.8
2'F-ANA at 2 4 6 7 9 10 11 12 13 14,73.5
2'F-ANA at 3 6 7 8 11 12 13,1300
2'F-ANA at 2 3 5 6 8 10 11,48.2

# Set 3
# Target: TAR DNA-binding protein 43, full length, His tag (TARDBP, Homo sapiens, UniProt Q13148, residues 1-414)
# Technique: RNA Bind-n-Seq
# Molecule type: RNA
# Sample: in vitro
# Tested at: 20 nM
# Notes: 6-mer, flanks averaged, single round
# Added: 150 mM KCl
# Reference: input library
# Direction: higher = stronger binding
Strand,6-mer enrichment (R)
UGUUCC,0.617
CAUGCA,0.716
CGCACC,0.724
CCGGGU,1.69
AAUAAU,1.45
UUGACU,0.627
GUUUGU,0.957
CUUCAA,0.556
UUUCAG,0.611
CAUUAU,0.574

# Single results of other studies
Molecule,target,assay,system,conditions,scale,quantity,value
"PhoQ, residues 284 288 289 292 302 303 TASMAF","PhoP, residues 12 14 15 18 19 LFHKL (Escherichia coli, UniProt P23836)","Sort-seq, refers to: YFP reporter",E. coli,"PhoQ-PhoP variant library, added: 10 µM Mg2+","reference: high Mg2+ state, higher = stronger signaling",fold induction,12.1

# Repeated from above (set 3):
Strand,6-mer enrichment (R)
CAUGCA,0.716
CGCACC,0.724
CCGGGU,1.69
AAUAAU,1.45
